{"data": "Assay results gathered from unrelated publications", "cell line": "HT-29", "note": "Each line is one published result; not all experiments were run side by side. ± gives the spread as reported."}
{"SMILES": "CCCCCCCCCCCCCCCC(=O)O[C@H]1[C@H](C)O[C@@H](O[C@H]2[C@H](N(C)C)[C@@H](O)[C@H](O[C@H]3[C@@H](CC=O)C[C@@H](C)[C@@H](O[C@H]4CC[C@H](N(C)C)[C@@H](C)O4)/C=C/C=C/C[C@@H](C)OC(=O)C[C@@H](O)[C@@H]3OC)O[C@@H]2C)C[C@@]1(C)O", "assay": "cell growth or viability, CCK-8", "conditions": "72 h", "IC50": "3.94 µM"}
{"SMILES": "O=C(CSc1nnc(-c2ccccc2)o1)N1CCC(=C2c3ncccc3CCc3cc(Cl)cc(Br)c32)CC1", "assay": "cell growth or viability, SRB", "IC50": "> 120 µM"}
{"SMILES": "N#Cc1c(F)c(F)c2nc(SCc3ccc4ccccc4c3)nc(N)c2c1F", "assay": "cell growth or viability, MTT", "conditions": "96 h", "IC50": "5.8 µM"}
{"SMILES": "C=C(CO)C(=O)O[C@H]1CC(=C)[C@@H]2C[C@H](O)[C@](O)(CCl)[C@@H]2[C@H]2OC(=O)C(=C)C12 (some centres unmarked)", "assay": "cell growth or viability", "IC50": "2.5 µg/mL"}
{"SMILES": "O=C(CN1C(=O)S/C(=C\\c2ccccc2)C1=O)Nc1ccc(C(=O)Nc2ccc(F)cc2)cc1", "assay": "cell growth or viability, MTT", "IC50": "27.9 µM"}
{"SMILES": "COc1ccc(C(=O)c2cc(C(=O)c3cc(Cl)ccc3O)c[n+]3c2NCCCC3)cc1", "assay": "cell growth or viability, MTT", "conditions": "96 h", "IC50": "14.1 µM"}
{"SMILES": "CCN(CC)CCO/N=C1/C=C2CCC3C(CC[C@]4(C)/C(=C/c5ccccn5)CCC34)[C@@]2(C)CC1 (some centres unmarked)", "assay": "cell growth or viability, MTT", "conditions": "72 h", "IC50": "> 100 µM"}
{"SMILES": "Cn1c(SCC(=O)N2CCC(=C3c4ncccc4CCc4cc(Cl)cc(Br)c43)CC2)nnc1-c1ccccc1", "assay": "cell growth or viability, SRB", "IC50": "65 µM"}
{"SMILES": "CCCCSc1nc(N)c2c(F)c(C#N)c(F)c(F)c2n1", "assay": "cell growth or viability, MTT", "conditions": "96 h", "IC50": "8 µM"}
{"SMILES": "C[C@]12CC/C(=N\\OCCN3CCOCC3)C=C1CCC1C2CC[C@]2(C)/C(=C/c3ccccn3)CCC12 (some centres unmarked)", "assay": "cell growth or viability, MTT", "conditions": "72 h", "IC50": "7.8 µM"}
{"SMILES": "O=C(CNc1nnc(-c2ccccc2)s1)N1CCC(=C2c3ncccc3CCc3cc(Cl)cc(Br)c32)CC1", "assay": "cell growth or viability, SRB", "IC50": "> 120 µM"}
{"SMILES": "CO[C@@H]1[C@@H](O[C@@H]2O[C@H](C)[C@@H](O[C@H]3C[C@@](C)(O)[C@@H](O)[C@H](C)O3)[C@H](N(C)C)[C@H]2O)[C@@H](CC=O)C[C@@H](C)[C@@H](O[C@H]2CC[C@H](N(C)C)[C@@H](C)O2)/C=C/C=C/C[C@@H](C)OC(=O)C[C@H]1OC(=O)c1ccc(C(C)(C)C)cc1", "assay": "cell growth or viability, CCK-8", "conditions": "72 h", "IC50": "5.95 µM"}
{"SMILES": "N#Cc1c(F)c(Cl)c2nc(SCC3CCCO3)nc(N)c2c1F (centres unmarked)", "assay": "cell growth or viability, MTT", "conditions": "96 h", "IC50": "6.87 µM"}
{"SMILES": "COc1c(C)c(OS(=O)(=O)c2ccccc2)c(C)c(O)c1C(=O)/C=C/c1ccccc1", "assay": "cell growth or viability, SRB", "conditions": "72 h", "IC50": "26.7 µM"}
{"SMILES": "N#Cc1c(F)c(F)c2nc(SCc3ccccc3)nc(N)c2c1F", "assay": "cell growth or viability, MTT", "conditions": "96 h", "IC50": "6.06 µM"}
{"SMILES": "NS(=O)(=O)c1ccc(NC(=O)NN[C@@H]2O[C@H](CO)[C@@H](O)[C@H](O)[C@H]2O)cc1", "assay": "cell growth or viability, MTT", "conditions": "96 h", "IC50": "92 µM"}
{"SMILES": "CCCCNC(=O)O[C@H]1[C@H](C)O[C@@H](O[C@H]2[C@H](N(C)C)[C@@H](O)[C@H](O[C@H]3[C@@H](CC=O)C[C@@H](C)[C@@H](O[C@H]4CC[C@H](N(C)C)[C@@H](C)O4)/C=C/C=C/C[C@@H](C)OC(=O)C[C@@H](O)[C@@H]3OC)O[C@@H]2C)C[C@@]1(C)O", "assay": "cell growth or viability, CCK-8", "conditions": "72 h", "IC50": "> 50 µM"}
{"SMILES": "CN(C)C(=S)N(C)N=Cc1ccccc1SSc1ccccc1C=NN(C)C(=S)N(C)C", "assay": "cell proliferation, MTT", "conditions": "72 h", "IC50": "0.9 ± 0.2 µM"}
{"SMILES": "CCNC(=O)Nc1ccc(S(=O)(=O)Oc2ccccc2CC)cc1", "assay": "cell growth or viability, SRB", "conditions": "48 h", "IC50": "3.1 µM"}
{"SMILES": "CN1CCN(C(=O)c2cn(C34CCCC(C)(CCC5C3CC5(C)C)C4)nn2)CC1 (centres unmarked)", "assay": "cell growth or viability, CCK-8", "conditions": "72 h", "IC50": "22 µM"}
{"SMILES": "CN1CCCC1CCO/N=C1/C=C2CCC3C(CC[C@]4(C)/C(=C/c5ccccn5)CCC34)[C@@]2(C)CC1 (some centres unmarked)", "assay": "cell growth or viability, MTT", "conditions": "72 h", "IC50": "> 100 µM"}
{"SMILES": "CCCCCCCCSc1nc(N)c2c(F)c(C#N)c(F)c(Cl)c2n1", "assay": "cell growth or viability, MTT", "conditions": "96 h", "IC50": "> 100 µM"}
{"SMILES": "CN(C)CCCS(=O)(=O)NC12CCCC(C)(CCC3C1CC3(C)C)C2 (centres unmarked)", "assay": "cell growth or viability, CCK-8", "conditions": "72 h", "IC50": "11.8 µM"}
{"SMILES": "N#Cc1c(F)c(Cl)c2nc(SCc3ccccc3)nc(N)c2c1F", "assay": "cell growth or viability, MTT", "conditions": "96 h", "IC50": "35.5 µM"}
{"SMILES": "NS(=O)(=O)c1ccc(NC(=O)NN[C@@H]2OC[C@H](O)[C@H](O)[C@H]2O)cc1", "assay": "cell growth or viability, MTT", "conditions": "96 h", "IC50": "90 µM"}
{"SMILES": "COc1ccc(NC(=O)c2ccc(NC(=O)CN3C(=O)S/C(=C\\c4ccccc4OC)C3=O)cc2)cc1", "assay": "cell growth or viability, MTT", "IC50": "18.6 µM"}
{"SMILES": "O=C(CN1CCN(c2nsc3ccccc23)CC1)N1CCC(=C2c3ncccc3CCc3cc(Cl)cc(Br)c32)CC1", "assay": "cell growth or viability, SRB", "IC50": "< 15 µM"}
{"SMILES": "COc1cc(C2COc3cc(O)cc(O)c3C2=NN)c(OC)cc1O (centres unmarked)", "assay": "cell growth or viability, MTT", "conditions": "72 h", "IC50": "97.8 µM"}
{"SMILES": "C[C@]12CC/C(=N/O)C=C1CCC1C2CC[C@]2(C)/C(=C/c3ccccn3)CCC12 (some centres unmarked)", "assay": "cell growth or viability, MTT", "conditions": "72 h", "IC50": "10.6 µM"}
{"SMILES": "CO[C@@H]1[C@@H](O[C@@H]2O[C@H](C)[C@@H](O[C@H]3C[C@@](C)(O)[C@@H](OC(=O)c4ccc(C(C)(C)C)cc4)[C@H](C)O3)[C@H](N(C)C)[C@H]2O)[C@@H](CC=O)C[C@@H](C)[C@@H](O[C@H]2CC[C@H](N(C)C)[C@@H](C)O2)/C=C/C=C/C[C@@H](C)OC(=O)C[C@H]1O", "assay": "cell growth or viability, CCK-8", "conditions": "72 h", "IC50": "0.91 µM"}
{"SMILES": "C[C@]12CC/C(=N\\OCCN3CCCCC3)C=C1CCC1C2CC[C@]2(C)/C(=C/c3ccccn3)CCC12 (some centres unmarked)", "assay": "cell growth or viability, MTT", "conditions": "72 h", "IC50": "23.9 µM"}
{"SMILES": "CCCCc1ccc(C(=O)O[C@H]2[C@H](C)O[C@@H](O[C@H]3[C@H](N(C)C)[C@@H](O)[C@H](O[C@H]4[C@@H](CC=O)C[C@@H](C)[C@@H](O[C@H]5CC[C@H](N(C)C)[C@@H](C)O5)/C=C/C=C/C[C@@H](C)OC(=O)C[C@@H](O)[C@@H]4OC)O[C@@H]3C)C[C@@]2(C)O)cc1", "assay": "cell growth or viability, CCK-8", "conditions": "72 h", "IC50": "4.67 µM"}
{"SMILES": "Oc1ccc(Br)cc1C=NNC(=S)Nc1ccccc1", "assay": "cell growth, MTT", "conditions": "72 h", "IC50": "6 ± 1 µM"}
{"SMILES": "CN1CCC(S(=O)(=O)NC23CCCC(C)(CCC4C2CC4(C)C)C3)CC1 (centres unmarked)", "assay": "cell growth or viability, CCK-8", "conditions": "72 h", "IC50": "7.3 µM"}
{"SMILES": "CCCC(=O)Oc1c(C)c(OC)c2c(/C=C/c3ccccc3)c(CC)c(=O)oc2c1C", "assay": "cell growth or viability, SRB", "conditions": "72 h", "IC50": "30.9 µM"}
{"SMILES": "CC12CCCC(n3cc(C(=O)N4CCC(N)CC4)nn3)(C1)C1CC(C)(C)C1CC2 (centres unmarked)", "assay": "cell growth or viability, CCK-8", "conditions": "72 h", "IC50": "6.05 µM"}
{"SMILES": "CO[C@@H]1[C@@H](O[C@@H]2O[C@H](C)[C@@H](O[C@H]3C[C@@](C)(O)[C@@H](OC(=O)NC4CCCCC4)[C@H](C)O3)[C@H](N(C)C)[C@H]2O)[C@@H](CC=O)C[C@@H](C)[C@@H](O[C@H]2CC[C@H](N(C)C)[C@@H](C)O2)/C=C/C=C/C[C@@H](C)OC(=O)C[C@H]1O", "assay": "cell growth or viability, CCK-8", "conditions": "72 h", "IC50": "> 50 µM"}
{"SMILES": "O=C(/C=C(O)/C=C/c1cccs1)/C=C/c1cccs1", "assay": "cell growth or viability, MTT", "conditions": "72 h", "IC50": "> 75 µM"}
{"note": "A few entries again:"}
{"SMILES": "Cn1c(SCC(=O)N2CCC(=C3c4ncccc4CCc4cc(Cl)cc(Br)c43)CC2)nnc1-c1ccccc1", "assay": "cell growth or viability, SRB", "IC50": "65 µM"}
{"SMILES": "CN(C)CCCS(=O)(=O)NC12CCCC(C)(CCC3C1CC3(C)C)C2 (centres unmarked)", "assay": "cell growth or viability, CCK-8", "conditions": "72 h", "IC50": "11.8 µM"}
{"SMILES": "CCNC(=O)Nc1ccc(S(=O)(=O)Oc2ccccc2CC)cc1", "assay": "cell growth or viability, SRB", "conditions": "48 h", "IC50": "3.1 µM"}
